Measured values gathered from unrelated publications.
A part holds a random share of what one study measured. “And” joins repeats or separate records; there may be more than shown.
UniProt P10721, sequence (whole entry, unmodified, looked up): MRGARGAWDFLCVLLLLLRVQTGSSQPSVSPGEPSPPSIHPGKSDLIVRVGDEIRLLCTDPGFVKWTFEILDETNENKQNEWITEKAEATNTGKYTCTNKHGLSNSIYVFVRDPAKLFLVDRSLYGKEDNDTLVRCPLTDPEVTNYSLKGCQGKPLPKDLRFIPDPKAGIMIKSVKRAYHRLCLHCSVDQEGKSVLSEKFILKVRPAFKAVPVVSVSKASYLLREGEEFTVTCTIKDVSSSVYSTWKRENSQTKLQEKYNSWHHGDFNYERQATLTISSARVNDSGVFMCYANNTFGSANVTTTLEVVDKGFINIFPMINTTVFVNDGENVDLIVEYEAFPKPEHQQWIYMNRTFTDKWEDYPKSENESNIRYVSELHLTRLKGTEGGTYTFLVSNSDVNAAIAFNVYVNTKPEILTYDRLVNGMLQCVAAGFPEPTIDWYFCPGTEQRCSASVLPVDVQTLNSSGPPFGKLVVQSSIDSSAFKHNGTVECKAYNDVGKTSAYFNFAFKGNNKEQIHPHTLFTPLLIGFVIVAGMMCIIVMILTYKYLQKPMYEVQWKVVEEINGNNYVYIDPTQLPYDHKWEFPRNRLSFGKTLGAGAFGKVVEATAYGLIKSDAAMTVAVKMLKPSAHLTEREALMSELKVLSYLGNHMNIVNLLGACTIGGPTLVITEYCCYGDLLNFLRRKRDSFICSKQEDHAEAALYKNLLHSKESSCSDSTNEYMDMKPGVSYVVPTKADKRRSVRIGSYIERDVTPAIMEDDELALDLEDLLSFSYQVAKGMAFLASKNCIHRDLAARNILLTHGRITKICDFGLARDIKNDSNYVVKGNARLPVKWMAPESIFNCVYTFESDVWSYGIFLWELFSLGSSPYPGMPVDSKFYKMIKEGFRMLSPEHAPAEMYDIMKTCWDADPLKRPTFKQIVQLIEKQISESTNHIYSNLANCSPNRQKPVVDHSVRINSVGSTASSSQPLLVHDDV
UniProt Q02763, sequence (whole entry, looked up): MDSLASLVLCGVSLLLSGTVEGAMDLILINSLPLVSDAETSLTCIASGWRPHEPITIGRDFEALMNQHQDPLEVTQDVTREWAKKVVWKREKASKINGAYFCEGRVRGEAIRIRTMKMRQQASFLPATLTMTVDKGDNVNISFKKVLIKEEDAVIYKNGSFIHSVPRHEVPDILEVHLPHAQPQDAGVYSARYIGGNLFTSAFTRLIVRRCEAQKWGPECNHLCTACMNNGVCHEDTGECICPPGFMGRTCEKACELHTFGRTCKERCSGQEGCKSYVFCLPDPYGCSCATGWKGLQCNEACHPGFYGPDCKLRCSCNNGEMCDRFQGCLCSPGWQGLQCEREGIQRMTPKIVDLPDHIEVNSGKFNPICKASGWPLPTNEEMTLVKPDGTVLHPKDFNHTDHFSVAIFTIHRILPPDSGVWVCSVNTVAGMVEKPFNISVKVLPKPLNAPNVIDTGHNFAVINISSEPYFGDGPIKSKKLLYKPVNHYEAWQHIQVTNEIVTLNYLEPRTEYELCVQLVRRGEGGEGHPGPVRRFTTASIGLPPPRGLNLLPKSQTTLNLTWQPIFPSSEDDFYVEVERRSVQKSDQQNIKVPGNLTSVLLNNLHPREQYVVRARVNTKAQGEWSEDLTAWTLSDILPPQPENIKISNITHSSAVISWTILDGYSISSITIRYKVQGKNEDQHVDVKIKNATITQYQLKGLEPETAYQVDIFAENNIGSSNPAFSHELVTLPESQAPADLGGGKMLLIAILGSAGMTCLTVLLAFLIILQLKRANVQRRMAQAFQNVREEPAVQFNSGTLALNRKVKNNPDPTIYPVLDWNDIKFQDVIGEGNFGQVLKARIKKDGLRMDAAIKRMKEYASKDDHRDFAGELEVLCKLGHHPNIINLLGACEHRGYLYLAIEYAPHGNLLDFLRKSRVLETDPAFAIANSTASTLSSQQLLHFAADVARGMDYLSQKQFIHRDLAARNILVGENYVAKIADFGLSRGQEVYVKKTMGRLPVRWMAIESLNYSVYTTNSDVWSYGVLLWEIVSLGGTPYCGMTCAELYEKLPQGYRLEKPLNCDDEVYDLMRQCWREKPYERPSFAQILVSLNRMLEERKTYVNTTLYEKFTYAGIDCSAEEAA
UniProt Q9UL54, sequence (whole entry, looked up): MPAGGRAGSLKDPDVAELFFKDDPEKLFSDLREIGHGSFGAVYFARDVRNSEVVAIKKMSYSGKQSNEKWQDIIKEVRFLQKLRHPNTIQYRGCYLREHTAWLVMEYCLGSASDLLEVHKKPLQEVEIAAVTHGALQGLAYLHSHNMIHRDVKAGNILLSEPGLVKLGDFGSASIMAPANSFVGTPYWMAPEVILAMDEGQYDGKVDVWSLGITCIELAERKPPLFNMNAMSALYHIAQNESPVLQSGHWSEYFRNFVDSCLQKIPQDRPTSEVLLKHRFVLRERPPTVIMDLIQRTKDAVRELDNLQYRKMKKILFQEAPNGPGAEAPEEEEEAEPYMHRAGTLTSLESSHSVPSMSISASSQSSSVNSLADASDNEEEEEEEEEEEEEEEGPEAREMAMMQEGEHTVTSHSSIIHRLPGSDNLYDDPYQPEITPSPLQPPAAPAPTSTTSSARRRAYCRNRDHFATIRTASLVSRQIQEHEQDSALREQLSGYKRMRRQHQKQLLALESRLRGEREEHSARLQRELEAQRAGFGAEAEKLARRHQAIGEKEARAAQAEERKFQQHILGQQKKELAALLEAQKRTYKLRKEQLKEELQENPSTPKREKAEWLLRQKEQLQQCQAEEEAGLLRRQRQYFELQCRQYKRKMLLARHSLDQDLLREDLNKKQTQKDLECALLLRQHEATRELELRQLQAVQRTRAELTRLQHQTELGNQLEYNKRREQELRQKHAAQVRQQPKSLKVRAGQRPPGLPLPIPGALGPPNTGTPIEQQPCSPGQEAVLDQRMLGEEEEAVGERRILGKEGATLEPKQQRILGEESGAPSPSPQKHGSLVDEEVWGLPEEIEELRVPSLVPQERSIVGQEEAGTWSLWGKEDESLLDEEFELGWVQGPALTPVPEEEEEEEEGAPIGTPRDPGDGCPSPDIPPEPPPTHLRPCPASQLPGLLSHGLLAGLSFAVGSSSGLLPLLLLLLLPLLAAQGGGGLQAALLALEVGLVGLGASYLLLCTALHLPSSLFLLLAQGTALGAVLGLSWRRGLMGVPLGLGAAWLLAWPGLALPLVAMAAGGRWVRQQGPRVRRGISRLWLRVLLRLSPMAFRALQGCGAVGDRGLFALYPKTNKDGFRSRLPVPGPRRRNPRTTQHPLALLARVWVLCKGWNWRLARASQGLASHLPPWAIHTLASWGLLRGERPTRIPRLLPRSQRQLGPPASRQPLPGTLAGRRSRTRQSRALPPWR
UniProt Q15208, sequence (whole entry, looked up): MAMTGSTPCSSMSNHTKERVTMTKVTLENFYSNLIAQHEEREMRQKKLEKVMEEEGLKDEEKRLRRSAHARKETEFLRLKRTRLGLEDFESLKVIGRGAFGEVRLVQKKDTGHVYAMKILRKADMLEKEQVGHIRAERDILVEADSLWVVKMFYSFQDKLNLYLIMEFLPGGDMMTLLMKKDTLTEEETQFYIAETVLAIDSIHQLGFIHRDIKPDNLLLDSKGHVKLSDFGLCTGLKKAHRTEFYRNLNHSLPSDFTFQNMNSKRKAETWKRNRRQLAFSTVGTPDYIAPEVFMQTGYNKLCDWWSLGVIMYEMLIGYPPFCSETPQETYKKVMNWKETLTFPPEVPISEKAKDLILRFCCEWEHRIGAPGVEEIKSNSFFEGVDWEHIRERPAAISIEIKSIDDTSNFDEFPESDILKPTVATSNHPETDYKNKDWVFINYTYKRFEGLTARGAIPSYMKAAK
UniProt P36896, sequence (whole entry, looked up): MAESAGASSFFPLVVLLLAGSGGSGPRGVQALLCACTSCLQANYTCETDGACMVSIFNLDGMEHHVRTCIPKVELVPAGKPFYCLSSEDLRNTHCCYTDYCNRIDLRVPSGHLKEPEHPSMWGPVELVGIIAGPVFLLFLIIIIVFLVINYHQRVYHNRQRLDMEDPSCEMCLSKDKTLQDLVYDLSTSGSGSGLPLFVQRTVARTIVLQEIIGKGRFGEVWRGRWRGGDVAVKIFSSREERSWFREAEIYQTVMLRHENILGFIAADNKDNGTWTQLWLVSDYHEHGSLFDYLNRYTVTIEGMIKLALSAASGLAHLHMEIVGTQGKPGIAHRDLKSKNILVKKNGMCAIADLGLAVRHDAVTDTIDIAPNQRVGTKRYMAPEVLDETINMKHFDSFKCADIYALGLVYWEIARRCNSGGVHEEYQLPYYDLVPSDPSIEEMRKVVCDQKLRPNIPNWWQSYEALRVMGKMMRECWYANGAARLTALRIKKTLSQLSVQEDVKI
UniProt P31749, sequence (whole entry, looked up): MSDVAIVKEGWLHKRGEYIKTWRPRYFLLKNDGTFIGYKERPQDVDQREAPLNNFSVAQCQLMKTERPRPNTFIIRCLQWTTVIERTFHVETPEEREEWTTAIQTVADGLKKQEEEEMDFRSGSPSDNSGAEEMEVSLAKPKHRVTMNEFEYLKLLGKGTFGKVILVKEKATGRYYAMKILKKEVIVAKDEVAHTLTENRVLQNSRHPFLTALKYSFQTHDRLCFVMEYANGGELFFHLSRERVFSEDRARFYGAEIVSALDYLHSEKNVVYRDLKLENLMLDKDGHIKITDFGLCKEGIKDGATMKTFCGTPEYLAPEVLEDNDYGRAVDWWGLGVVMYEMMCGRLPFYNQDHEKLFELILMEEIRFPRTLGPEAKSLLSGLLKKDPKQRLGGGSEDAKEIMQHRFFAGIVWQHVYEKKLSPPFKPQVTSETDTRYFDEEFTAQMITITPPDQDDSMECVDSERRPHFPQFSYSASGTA

Sample 1
Structure (SMILES): CC(C)S(=O)(=O)c1ccc2nccc(Nc3ccc4scnc4c3)c2c1
Cell line: L929
Observed: caspase activity
Technique: Ac-DEVD-pNA absorbance
Reading: higher = more activity
10 µM, 1 h — caspase-3 activity: 0.015 a.u. and 0.035 a.u. and 0.075 a.u. and 0.016 a.u. and 0.032 a.u.
For 5 µM, 0 h: caspase-3 activity read 0.015 a.u. and -0.0035 a.u. and 0.011 a.u. and 0.0075 a.u.
It gave 0.104 a.u. and 0.099 a.u. and 0.064 a.u. and 0.097 a.u. for caspase-3 activity (5 µM, 4 h).

Sample 2
Target: Prothrombin, mature alpha-thrombin (F2, Homo sapiens, UniProt P00734)
Technique: aptamer microarray, sandwich
Molecule type: DNA with 2'F-ANA
Medium: in vitro
Tested at: 200 nM
Notes: whole 15-mer aptamer, many near background
Added: Cy3 exosite-II aptamer, 400 nM
Reading: higher = stronger binding
Strand: GGTTGGTGTGGTTGG
`2'F-ANA at 7 11 12 13 14`: “mean fluorescence intensity” 275 a.u.
Under “mean fluorescence intensity”, `2'F-ANA at 1 3 5 6 7 10 11 13 15` is recorded as 52.1 a.u.
For `2'F-ANA at 2 3 4 6 7 8 12`, “mean fluorescence intensity” read 1000 a.u.
For `2'F-ANA at 2 7 8 11 12 14 15`, “mean fluorescence intensity” read 184 a.u.
`2'F-ANA at 1 2 3 5 8 9 11 13` — result for “mean fluorescence intensity”: 55.2 a.u.
`2'F-ANA at 5 6 7 8 9 10 14 15`: “mean fluorescence intensity” 64.2 a.u.
`2'F-ANA at 4 5 6 8 9 10 11 14` — result for “mean fluorescence intensity”: 69.5 a.u.
Under “mean fluorescence intensity”, `2'F-ANA at 2 3 4 5 6 8 10 11 12 13 14 15` is recorded as 52.6 a.u.

Sample 3
Structure (SMILES): Cc1nc(Nc2ncc(C(=O)Nc3c(C)cccc3Cl)s2)cc(N2CCN(CCO)CC2)n1
Observed: enzyme activity
Action: inhibitor
Tested at: 0.5 µM
Relative to: control
MAP3K14 (Homo sapiens, UniProt Q99558) — remaining activity: 97.5%.
For NEK1 (Homo sapiens, UniProt Q96PY6): remaining activity read 89.8%.
The remaining activity was 90.8% (TBK1 (Homo sapiens, UniProt Q9UHD2)).
The remaining activity was 106% (MST1R (Homo sapiens, UniProt Q04912)).
TAOK2 (Homo sapiens, UniProt Q9UL54) — remaining activity: 86.7%.
MAPK3 (Homo sapiens, UniProt P27361) — remaining activity: 100%.
ULK3 (Homo sapiens, UniProt Q6PHR2) — remaining activity: 103%.
For WEE1 (Homo sapiens, UniProt P30291): remaining activity read 92.6%.
It gave 109% for remaining activity (ACVR1B (Homo sapiens, UniProt P36896)).
For MAP3K5 (Homo sapiens, UniProt Q99683): remaining activity read 97.3%.
It gave -0.878% for remaining activity (FRK (Homo sapiens, UniProt P42685)).
MAP2K2 (Homo sapiens, UniProt P36507) — remaining activity: 102%.
For TEK (Homo sapiens, UniProt Q02763): remaining activity read 91.3%.
ARAF (Homo sapiens, UniProt P10398) — remaining activity: 33.8%.

Sample 4
SMILES: CN(C)c1ncnc(-c2ccc3nc(Nc4cc(CN5CCN(C(=O)CC(F)(F)F)CC5)ccn4)[nH]c3c2)c1Cl
Observed: cell-free assay
Technique: competition with immobilised ligand
Tested at: 1 µM
The remaining binding was 100% (RAF1 (Homo sapiens, UniProt P04049)).
Ribosomal protein S6 kinase alpha-4, C-terminal kinase domain (RPS6KA4, Homo sapiens, UniProt O75676) — remaining binding: 73%.
For BRSK1 (Homo sapiens, UniProt Q8TDC3): remaining binding read 100%.
For PIKFYVE (Homo sapiens, UniProt Q9Y2I7): remaining binding read 81%.
PIK3C2B (Homo sapiens, UniProt O00750) — remaining binding: 100%.
TNK2 (Homo sapiens, UniProt Q07912) — remaining binding: 96%.
DDR1 (Homo sapiens, UniProt Q08345) — remaining binding: 75%.
It gave 100% for remaining binding (KIT (Homo sapiens, UniProt P10721, T670I/V559D)).
It gave 87% for remaining binding (KIT (Homo sapiens, UniProt P10721, L576P)).
TXK (Homo sapiens, UniProt P42681) — remaining binding: 95%.
The remaining binding was 81% (Ribosomal protein S6 kinase alpha-3, N-terminal kinase domain (RPS6KA3, Homo sapiens, UniProt P51812)).
AKT1 (Homo sapiens, UniProt P31749) — remaining binding: 100%.
CAMK2A (Homo sapiens, UniProt Q9UQM7) — remaining binding: 100%.
For CLK4 (Homo sapiens, UniProt Q9HAZ1): remaining binding read 99%.
EPHB1 (Homo sapiens, UniProt P54762) — remaining binding: 97%.
For PAK2 (Homo sapiens, UniProt Q13177): remaining binding read 100%.
For MAP2K2 (Homo sapiens, UniProt P36507): remaining binding read 74%.
KIT (Homo sapiens, UniProt P10721, V559D/V654A) — remaining binding: 100%.
KIT (Homo sapiens, UniProt P10721, D816V) — remaining binding: 97%.
It gave 76% for remaining binding (SRPK2 (Homo sapiens, UniProt P78362)).
For STK38 (Homo sapiens, UniProt Q15208): remaining binding read 80%.
EPHA5 (Homo sapiens, UniProt P54756) — remaining binding: 100%.
For CDKL5 (Homo sapiens, UniProt O76039): remaining binding read 66%.
It gave 96% for remaining binding (CDKL1 (Homo sapiens, UniProt Q00532)).

Some of these lines once more (sample 4):
TXK (Homo sapiens, UniProt P42681) — remaining binding: 95%.
The remaining binding was 81% (Ribosomal protein S6 kinase alpha-3, N-terminal kinase domain (RPS6KA3, Homo sapiens, UniProt P51812)).
AKT1 (Homo sapiens, UniProt P31749) — remaining binding: 100%.
CAMK2A (Homo sapiens, UniProt Q9UQM7) — remaining binding: 100%.
For CLK4 (Homo sapiens, UniProt Q9HAZ1): remaining binding read 99%.
